Measurements pooled from the literature.
A part holds a random share of what one study measured.

Sample 1 — method: DNA microarray; baseline: untreated cells
Structure (SMILES): COCC1CC2C(CCC3(C)C(O)CCC23)c2ccc(O)cc21 (stereo not drawn)
cell line	assay	setting	mRNA level ratio
A549	refers to: GINS1	50 µM	0.735
A549	refers to: ORC1L	100 µM	0.485
A549	refers to: GDF15	100 µM	6.7
A549	refers to: MCM6	50 µM	0.865
A549	refers to: ORC1L	50 µM	0.693
A549	refers to: IL28A	100 µM	3.25
SK-OV-3	refers to: CDC25B	concentration not given, lower dose arm	1.13
A549	refers to: CDCA8	50 µM	0.766

Sample 2 — action: inhibitor; method: FLIPR membrane potential; cells: CHO-BC cells; notes: first repeat
Target: Sodium-dependent neutral amino acid transporter B(0)AT1 (SLC6A19, Homo sapiens, UniProt Q695T7)
Sequence of UniProt Q695T7 (whole entry, looked up): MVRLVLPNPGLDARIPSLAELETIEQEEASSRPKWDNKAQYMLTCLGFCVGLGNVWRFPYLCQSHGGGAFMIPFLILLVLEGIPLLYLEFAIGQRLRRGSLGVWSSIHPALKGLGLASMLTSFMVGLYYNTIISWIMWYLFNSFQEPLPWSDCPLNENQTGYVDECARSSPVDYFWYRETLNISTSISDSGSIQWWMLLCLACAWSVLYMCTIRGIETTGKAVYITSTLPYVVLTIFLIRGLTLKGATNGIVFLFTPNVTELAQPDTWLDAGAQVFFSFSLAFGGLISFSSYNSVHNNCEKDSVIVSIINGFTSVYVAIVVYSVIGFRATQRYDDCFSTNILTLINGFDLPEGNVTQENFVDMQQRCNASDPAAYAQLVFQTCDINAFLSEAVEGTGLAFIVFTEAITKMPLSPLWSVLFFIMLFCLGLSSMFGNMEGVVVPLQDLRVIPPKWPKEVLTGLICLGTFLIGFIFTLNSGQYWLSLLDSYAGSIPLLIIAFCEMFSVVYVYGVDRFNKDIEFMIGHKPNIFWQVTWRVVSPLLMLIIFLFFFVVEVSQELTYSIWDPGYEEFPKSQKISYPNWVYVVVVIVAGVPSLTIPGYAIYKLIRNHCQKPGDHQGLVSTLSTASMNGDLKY
SMILES	IC50 [nM]
Cc1cc(NCC(=O)NC(C)C)cc(C)c1Cl	130
CC(C)NC(=O)COc1ccc2ccccc2c1	1930
Cc1cc(OCC(=O)NC(C)C)ccc1Br	430
Cc1cc(NCC(=O)NC(C)C)cc(C)c1I	100
Cc1cc(OCC(=O)NC(C)C)ccc1I	330
CC(C)NC(=O)COc1cccc2ccccc12	1350
Cc1cc(NCC(=O)NC(C)C)cc(C)c1Br	390
Cc1cc(OCC(=O)NC(C)C)ccc1Cl	460

Single results of other studies
Compound	target or system	assay	system	setting	scale	quantity	value
Cn1cc(-c2cccc(CN3CCC4(CC3)COc3c4ccc4c3CN([C@H]3CCC(=O)NC3=O)C4=O)c2)cn1			Caco-2			Papp A→B	5.9 ×10⁻⁶ cm/s
C=CCN1C(=O)C(O)(C(=O)O)Oc2cc(F)ccc21 (stereo not drawn)	Arabidopsis thaliana	root length	Col-0, seedlings	3.125 µg/mL	baseline: water control	inhibition	14.5%

Repeated from above (sample 1):
cell line	assay	setting	mRNA level ratio
A549	refers to: CDCA8	50 µM	0.766
